Experimental data gathered from unrelated publications.
Every numbered part comes from another study and shows a few of its results, in no order. “And” joins repeats or separate records; there may be more than shown.
Sequence of UniProt P08069 (whole entry, looked up): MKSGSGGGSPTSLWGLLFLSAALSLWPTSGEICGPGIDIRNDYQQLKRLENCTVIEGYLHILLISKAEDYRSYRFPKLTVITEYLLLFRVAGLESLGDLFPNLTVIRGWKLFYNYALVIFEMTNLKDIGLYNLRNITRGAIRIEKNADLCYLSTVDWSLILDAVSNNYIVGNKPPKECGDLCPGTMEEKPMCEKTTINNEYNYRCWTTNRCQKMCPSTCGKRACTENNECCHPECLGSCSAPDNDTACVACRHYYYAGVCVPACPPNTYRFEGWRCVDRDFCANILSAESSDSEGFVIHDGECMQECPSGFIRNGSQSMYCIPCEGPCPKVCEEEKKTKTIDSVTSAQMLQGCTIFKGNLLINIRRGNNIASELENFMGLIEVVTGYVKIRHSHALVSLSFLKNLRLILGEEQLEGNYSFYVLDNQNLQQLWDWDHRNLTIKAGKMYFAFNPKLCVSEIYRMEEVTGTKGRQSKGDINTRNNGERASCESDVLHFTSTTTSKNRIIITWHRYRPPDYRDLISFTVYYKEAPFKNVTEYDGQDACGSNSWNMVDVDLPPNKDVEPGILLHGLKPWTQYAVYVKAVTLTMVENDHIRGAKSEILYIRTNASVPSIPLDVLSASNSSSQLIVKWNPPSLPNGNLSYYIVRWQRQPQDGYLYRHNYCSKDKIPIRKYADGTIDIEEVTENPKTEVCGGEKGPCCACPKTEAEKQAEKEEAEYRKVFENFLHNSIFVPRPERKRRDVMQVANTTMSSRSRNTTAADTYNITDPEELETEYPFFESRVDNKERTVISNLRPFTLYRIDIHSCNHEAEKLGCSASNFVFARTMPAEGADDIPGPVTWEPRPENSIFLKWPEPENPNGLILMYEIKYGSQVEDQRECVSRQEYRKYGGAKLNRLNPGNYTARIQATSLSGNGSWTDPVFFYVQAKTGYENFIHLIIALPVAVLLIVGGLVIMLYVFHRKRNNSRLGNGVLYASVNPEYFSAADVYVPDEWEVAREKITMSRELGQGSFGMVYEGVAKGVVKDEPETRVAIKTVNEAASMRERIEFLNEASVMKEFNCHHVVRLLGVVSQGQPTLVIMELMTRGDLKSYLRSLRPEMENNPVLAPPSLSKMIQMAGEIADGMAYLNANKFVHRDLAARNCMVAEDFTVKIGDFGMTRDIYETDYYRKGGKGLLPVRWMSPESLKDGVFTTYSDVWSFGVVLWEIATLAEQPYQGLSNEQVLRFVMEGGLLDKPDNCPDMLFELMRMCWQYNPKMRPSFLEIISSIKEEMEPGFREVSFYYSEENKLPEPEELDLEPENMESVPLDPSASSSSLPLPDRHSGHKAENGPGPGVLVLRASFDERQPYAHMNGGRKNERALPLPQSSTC
Sequence of UniProt P54756 (whole entry, looked up): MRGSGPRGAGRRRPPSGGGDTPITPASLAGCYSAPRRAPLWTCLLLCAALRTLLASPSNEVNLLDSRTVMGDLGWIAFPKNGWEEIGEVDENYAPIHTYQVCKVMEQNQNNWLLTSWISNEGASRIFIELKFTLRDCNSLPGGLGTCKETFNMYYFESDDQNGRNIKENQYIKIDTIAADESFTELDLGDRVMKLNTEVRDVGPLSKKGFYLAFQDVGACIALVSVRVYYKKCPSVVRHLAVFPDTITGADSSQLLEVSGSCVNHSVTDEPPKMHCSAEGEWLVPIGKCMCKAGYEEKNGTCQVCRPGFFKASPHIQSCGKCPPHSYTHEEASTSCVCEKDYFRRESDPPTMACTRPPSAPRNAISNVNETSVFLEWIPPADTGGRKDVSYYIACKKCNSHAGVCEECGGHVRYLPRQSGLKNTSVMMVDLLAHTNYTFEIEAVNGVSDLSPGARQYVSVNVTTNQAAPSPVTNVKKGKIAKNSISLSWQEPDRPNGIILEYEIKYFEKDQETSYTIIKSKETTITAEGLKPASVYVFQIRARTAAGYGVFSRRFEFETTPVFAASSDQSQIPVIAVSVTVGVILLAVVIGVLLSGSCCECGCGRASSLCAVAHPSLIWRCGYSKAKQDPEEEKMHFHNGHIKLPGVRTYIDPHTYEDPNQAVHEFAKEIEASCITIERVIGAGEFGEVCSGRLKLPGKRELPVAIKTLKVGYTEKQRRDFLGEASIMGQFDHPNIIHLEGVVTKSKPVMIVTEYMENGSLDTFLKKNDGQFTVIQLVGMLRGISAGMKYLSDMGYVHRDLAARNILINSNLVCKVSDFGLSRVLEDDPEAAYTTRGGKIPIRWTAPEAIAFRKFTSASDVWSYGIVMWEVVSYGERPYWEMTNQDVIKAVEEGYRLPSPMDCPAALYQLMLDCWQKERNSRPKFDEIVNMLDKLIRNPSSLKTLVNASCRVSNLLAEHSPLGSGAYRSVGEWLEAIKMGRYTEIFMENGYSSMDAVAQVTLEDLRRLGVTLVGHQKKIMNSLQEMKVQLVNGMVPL
Sequence of UniProt Q92918 (whole entry, looked up): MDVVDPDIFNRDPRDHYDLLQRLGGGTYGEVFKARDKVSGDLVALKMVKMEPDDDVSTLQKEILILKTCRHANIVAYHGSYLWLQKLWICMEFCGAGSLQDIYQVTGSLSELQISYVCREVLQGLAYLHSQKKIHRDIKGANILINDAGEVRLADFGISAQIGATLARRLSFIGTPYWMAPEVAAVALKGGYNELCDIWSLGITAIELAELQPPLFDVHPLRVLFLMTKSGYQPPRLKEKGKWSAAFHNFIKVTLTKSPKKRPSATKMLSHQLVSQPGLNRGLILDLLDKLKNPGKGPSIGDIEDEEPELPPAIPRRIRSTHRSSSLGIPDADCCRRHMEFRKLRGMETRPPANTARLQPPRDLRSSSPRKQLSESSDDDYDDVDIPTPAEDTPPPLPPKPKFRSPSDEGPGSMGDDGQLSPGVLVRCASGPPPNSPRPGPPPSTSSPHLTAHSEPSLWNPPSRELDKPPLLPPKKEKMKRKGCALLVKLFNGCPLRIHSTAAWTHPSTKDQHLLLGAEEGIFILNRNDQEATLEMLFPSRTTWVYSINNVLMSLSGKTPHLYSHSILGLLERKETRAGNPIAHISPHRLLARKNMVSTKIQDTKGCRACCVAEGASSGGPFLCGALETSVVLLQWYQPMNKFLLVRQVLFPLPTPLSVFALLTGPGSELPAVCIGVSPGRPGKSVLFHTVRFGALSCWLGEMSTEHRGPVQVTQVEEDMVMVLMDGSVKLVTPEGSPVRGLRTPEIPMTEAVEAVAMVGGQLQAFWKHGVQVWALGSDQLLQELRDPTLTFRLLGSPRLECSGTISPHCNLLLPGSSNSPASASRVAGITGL
Sequence of UniProt Q05655 (whole entry, looked up): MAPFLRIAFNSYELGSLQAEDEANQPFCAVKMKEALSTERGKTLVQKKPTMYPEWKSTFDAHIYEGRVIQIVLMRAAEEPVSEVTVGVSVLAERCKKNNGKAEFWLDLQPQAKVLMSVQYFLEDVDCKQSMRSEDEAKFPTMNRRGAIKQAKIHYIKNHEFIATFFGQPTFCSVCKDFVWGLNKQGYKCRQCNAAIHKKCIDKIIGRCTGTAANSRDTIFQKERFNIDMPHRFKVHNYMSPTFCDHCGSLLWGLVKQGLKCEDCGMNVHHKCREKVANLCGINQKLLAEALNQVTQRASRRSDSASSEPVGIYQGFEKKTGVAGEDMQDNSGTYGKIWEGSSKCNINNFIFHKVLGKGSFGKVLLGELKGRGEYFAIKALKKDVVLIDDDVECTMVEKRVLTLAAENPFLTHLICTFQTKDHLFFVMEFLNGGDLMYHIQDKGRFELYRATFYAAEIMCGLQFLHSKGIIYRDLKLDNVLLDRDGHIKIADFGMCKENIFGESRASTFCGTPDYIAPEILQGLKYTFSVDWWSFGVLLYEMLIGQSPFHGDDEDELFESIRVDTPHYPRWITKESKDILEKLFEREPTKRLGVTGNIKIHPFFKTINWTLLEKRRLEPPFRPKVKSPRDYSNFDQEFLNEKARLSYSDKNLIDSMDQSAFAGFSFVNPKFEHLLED
Sequence of UniProt P21127 (whole entry, looked up): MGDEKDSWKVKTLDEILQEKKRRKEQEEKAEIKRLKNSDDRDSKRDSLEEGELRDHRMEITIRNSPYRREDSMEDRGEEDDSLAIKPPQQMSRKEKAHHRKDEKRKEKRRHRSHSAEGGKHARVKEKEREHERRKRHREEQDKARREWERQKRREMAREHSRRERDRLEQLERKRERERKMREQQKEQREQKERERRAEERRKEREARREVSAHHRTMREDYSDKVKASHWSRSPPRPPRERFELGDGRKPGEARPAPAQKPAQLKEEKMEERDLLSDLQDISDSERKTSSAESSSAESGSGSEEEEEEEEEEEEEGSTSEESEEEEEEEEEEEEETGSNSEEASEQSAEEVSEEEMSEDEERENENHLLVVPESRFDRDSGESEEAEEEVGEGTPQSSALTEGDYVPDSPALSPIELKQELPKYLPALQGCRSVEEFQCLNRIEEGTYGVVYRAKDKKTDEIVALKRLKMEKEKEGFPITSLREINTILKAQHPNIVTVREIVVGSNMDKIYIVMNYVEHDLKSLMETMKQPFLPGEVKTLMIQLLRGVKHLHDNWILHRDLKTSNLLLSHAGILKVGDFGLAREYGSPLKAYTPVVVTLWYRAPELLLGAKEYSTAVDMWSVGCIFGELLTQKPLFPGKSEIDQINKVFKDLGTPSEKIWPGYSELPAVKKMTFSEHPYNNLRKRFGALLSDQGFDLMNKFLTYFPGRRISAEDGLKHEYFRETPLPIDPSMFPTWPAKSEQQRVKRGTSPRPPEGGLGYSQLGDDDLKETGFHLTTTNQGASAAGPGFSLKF
Sequence of UniProt Q6P2M8 (whole entry, looked up): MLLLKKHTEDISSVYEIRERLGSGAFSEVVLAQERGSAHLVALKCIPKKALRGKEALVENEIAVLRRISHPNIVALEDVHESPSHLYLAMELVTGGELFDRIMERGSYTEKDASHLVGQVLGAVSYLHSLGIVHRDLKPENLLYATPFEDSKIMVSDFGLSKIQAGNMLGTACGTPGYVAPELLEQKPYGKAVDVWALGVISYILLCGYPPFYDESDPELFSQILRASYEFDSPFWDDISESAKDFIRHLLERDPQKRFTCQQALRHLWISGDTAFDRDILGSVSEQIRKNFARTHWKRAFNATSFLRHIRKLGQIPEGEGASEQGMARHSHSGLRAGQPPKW

Set 1 — observed: cell-free assay; technique: competition with immobilised ligand; concentration: 1 µM
Compound: COc1cc(-c2cn(C3CCc4c(F)cccc4N(CC(F)(F)F)C3=O)nn2)ccc1-n1cnc(C)c1 (stereo not drawn)
target	remaining binding
PNCK (Homo sapiens, UniProt Q6P2M8)	100%
CSNK1G1 (Homo sapiens, UniProt Q9HCP0)	86%
PAK5 (Homo sapiens, UniProt Q9P286)	93%
MAP4K1 (Homo sapiens, UniProt Q92918)	100%
STK24 (Homo sapiens, UniProt Q9Y6E0)	100%
FLT4 (Homo sapiens, UniProt P35916)	100%
ACVR2B (Homo sapiens, UniProt Q13705)	100%
PTK2 (Homo sapiens, UniProt Q05397)	100%
MAP3K5 (Homo sapiens, UniProt Q99683)	100%
BRAF (Homo sapiens, UniProt P15056, V600E)	100%
Tyrosine-protein kinase JAK1, JH2 (JAK1, Homo sapiens, UniProt P23458)	100%
CDK11B (Homo sapiens, UniProt P21127)	95%
IGF1R (Homo sapiens, UniProt P08069)	100%
CDK4 (Homo sapiens, UniProt P11802)	88%
MAP3K7 (Homo sapiens, UniProt O43318)	100%
PRKACA (Homo sapiens, UniProt P17612)	100%
CDK9 (Homo sapiens, UniProt P50750)	97%
GRK2 (Homo sapiens, UniProt P25098)	100%
PRPF4B (Homo sapiens, UniProt Q13523)	100%

Set 2 — observed: enzyme activity; action: inhibitor; concentration: 0.5 µM; baseline: control
Compound: CC(=O)O/N=C1/C(c2c(O)[nH]c3cc(Br)ccc23)=Nc2ccccc21
target	remaining activity
LRRK2 (Homo sapiens, UniProt Q5S007)	87.6%
CHEK1 (Homo sapiens, UniProt O14757)	100%
PRKCD (Homo sapiens, UniProt Q05655)	97%
LYN (Homo sapiens, UniProt P07948)	28.1%
KIT (Homo sapiens, UniProt P10721)	62.3%
AKT3 (Homo sapiens, UniProt Q9Y243)	95.1%
MAP4K2 (Homo sapiens, UniProt Q12851)	44%
PLK2 (Homo sapiens, UniProt Q9NYY3)	100%
PRKG1 (Homo sapiens, UniProt Q13976)	82.7%
NEK4 (Homo sapiens, UniProt P51957)	85.6%
EPHA5 (Homo sapiens, UniProt P54756)	102%
PRKCI (Homo sapiens, UniProt P41743)	74.3%
MAPK13 (Homo sapiens, UniProt O15264)	91.5%

Set 3 — technique: phase 2a trial; species: idiopathic pulmonary fibrosis patients
Compound: CC(C)n1cnc(-c2ccc(F)cc2)c1-c1ncc(C(=O)Nc2ccc(N3CCN(C)CC3)cc2)[nH]1
item	dose	setting	adverse event incidence
liver injury	30 mg once daily	grade 3	0%
synovitis	60 mg once daily	grade 5	0%
hepatic enzyme abnormal	60 mg once daily	grade 2	0%
chronic gastritis	dose not given	grade 5, all arms pooled	0%
gingivitis	30 mg once daily	grade 5	0%
allergic conjunctivitis	60 mg once daily	grade 1	0%

Single results of other studies
Compound	technique	species	matrix	route	dose	measurement	result
COc1ccc(-c2c(Nc3ccccn3)[nH]c3c(C4=CCCCC4)c(-c4ccccc4)nn3c2=O)cc1	LC-MS/MS	human	plasma	oral	50 mg once daily	AUC(0-tau)	34900 ng·h/mL and 33000 ng·h/mL
